Experimental data from different studies.
± marks the error that the study gave. ≈ marks a conversion by molar mass, not a printed value.

Substance | target or system | assay | test system | setting | scale | quantity | value
CCOC(=O)c1c(N)csc1-c1cn(-c2ccccc2)nc1-c1ccc(C)cc1 | Klebsiella pneumoniae | broth microdilution | clinical urinary isolate | compound gamma-irradiated 0 kGy |  | MIC | 0.25 ± 0.5 µg/mL (≈ 0.62 µM)
CC(=NNC(=S)NN=C(C(=NO)c1ccccc1)c1ccccc1)c1ccccc1C | MCF7 | Western blot, item: Bcl-2 |  | IC50 concentration, 24 h | baseline: untreated | relative protein level | 0.61 ± 0.06
COc1ccc2c(c1)c(CC(=O)O)c(C)n2C(=O)c1ccc(Cl)cc1 |  | multiplex bead immunoassay, item: IL-7 | CD-1 mice, serum | ip, 20 mg/kg, three-injection regimen, with: LPS 3 mg/kg |  | cytokine level | 11.2 ± 2.7 pg/mL
Nc1ncnc2c1c(-c1ccc3ccccc3n1)cn2C1OC(CO)C(O)C1O (stereo not drawn) | Trichomonas vaginalis | resorufin | G3, metronidazole-sensitive | 24 h + 2 h, 2% O2 |  | EC50 | 2.27 ± 0.272 µM
O=c1ccc2ccccc2o1 | CYP2A6 human | 7-hydroxylation, substrate | human liver microsomes | CYP2A6 added 433 pmol/mg, ratio 1 |  | Vmax | 27.1 ± 12.4 min⁻¹
COc1cc(-c2cn([C@@H]3O[C@H](CO)C[C@H]3O)c3ncnc(N)c23)ccc1Cl | Trichomonas vaginalis | resorufin | G3, metronidazole-sensitive | 24 h + 2 h, 2% O2 |  | EC50 | 1.75 ± 0.15 µM
Nc1ccn(C[C@@H](CO)OCP(=O)(O)O)c(=O)n1 | herpes simplex virus 2 | cytopathic effect | primary human keratinocytes, G |  |  | EC50 | 4.4 ± 2.8 µg/mL
COc1ccc(-c2cn([C@@H]3O[C@H](CO)C[C@H]3O)c3ncnc(N)c23)cc1Cl | Trichomonas vaginalis | resorufin | G3, metronidazole-sensitive | 24 h + 2 h, 2% O2 |  | EC50 | 3.06 ± 0.41 µM
CC(C)C[C@H](NC(=O)[C@H](CO)NC(=O)[C@H](CCCNC(=N)N)NC(=O)[C@H](CC(=O)O)NC(=O)[C@H](CCC(=O)O)NC(=O)[C@H](C)NC(=O)[C@@H]1CCCN1C(=O)[C@H](C)NC(=O)[C@H](CCC(=O)O)NC(=O)[C@@H]1CCCN1C(=O)[C@@H]1CCCN1)C(N)=O |  | HPLC-EC | F344 rat, normal, striatum, wet tissue, both hemispheres | intranasal, 300 µg, 5 days/week for 3 weeks |  | dopamine level | 11900 ± 904 ng/g
Nc1ncnc2c1ncn2CCOCP(=O)(O)O | herpes simplex virus 2 | cytopathic effect | HEL, G |  |  | EC50 | 3.6 ± 0.1 µg/mL
COc1cc(C=O)ccc1O | UGT (rat) | p-NP glucuronidation, inhibitor | rat kidney microsomes |  |  | lowest inhibitory concentration | ≥ 100 µM
MRYGW | cytochrome P450 Blt (Micromonospora sp. MW-13) | substrate, LC-MS | peptide | overnight, 30 °C, P450 0.5 µM, with: NADH 2 mM |  | conversion to cyclic peptide | 19%
